Published values pooled from the literature.
Numbered parts are unrelated; each lists some results of a single study. Substitutions count along the parent as printed.
UniProt O15294, sequence (whole entry, looked up): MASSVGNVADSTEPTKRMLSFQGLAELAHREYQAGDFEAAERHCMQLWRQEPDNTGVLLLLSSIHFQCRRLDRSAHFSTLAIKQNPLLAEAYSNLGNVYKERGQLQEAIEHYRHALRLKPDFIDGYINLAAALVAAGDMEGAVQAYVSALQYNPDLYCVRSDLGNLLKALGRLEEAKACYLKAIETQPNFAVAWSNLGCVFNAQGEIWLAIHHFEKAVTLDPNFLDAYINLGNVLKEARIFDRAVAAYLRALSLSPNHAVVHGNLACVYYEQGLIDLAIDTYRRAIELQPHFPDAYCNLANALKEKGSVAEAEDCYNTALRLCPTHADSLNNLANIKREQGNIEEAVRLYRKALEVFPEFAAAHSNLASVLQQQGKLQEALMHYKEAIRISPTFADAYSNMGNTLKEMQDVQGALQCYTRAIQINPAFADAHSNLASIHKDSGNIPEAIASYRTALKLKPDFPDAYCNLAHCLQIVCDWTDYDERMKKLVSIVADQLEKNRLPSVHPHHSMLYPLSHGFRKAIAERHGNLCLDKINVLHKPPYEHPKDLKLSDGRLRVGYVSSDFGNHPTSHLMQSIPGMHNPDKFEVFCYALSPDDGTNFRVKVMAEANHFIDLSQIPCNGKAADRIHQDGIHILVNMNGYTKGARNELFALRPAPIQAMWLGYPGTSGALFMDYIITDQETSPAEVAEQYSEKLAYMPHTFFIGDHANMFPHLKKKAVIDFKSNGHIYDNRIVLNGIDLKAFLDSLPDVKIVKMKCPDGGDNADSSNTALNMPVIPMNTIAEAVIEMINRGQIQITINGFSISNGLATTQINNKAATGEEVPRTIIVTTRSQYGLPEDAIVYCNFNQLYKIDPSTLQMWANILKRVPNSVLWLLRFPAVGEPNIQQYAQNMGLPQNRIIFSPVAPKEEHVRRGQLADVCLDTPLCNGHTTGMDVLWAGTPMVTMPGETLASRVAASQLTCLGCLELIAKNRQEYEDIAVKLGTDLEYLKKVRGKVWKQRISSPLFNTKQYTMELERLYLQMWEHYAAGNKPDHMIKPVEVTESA

Study 1
Target: tungstate, free oxyanion
Method: microfluidic competitive inhibition
Matrix: in vitro, cell-free expressed
Concentration: not given
Setting: derived from inhibition constants, unchanged parent 2230 nM
Direction: lower = stronger binding
Quantity: oxyanion analog dissociation constant
Starting sequence: PafA, mature enzyme, eGFP fusion (Elizabethkingia meningoseptica, UniProt Q9KJX5); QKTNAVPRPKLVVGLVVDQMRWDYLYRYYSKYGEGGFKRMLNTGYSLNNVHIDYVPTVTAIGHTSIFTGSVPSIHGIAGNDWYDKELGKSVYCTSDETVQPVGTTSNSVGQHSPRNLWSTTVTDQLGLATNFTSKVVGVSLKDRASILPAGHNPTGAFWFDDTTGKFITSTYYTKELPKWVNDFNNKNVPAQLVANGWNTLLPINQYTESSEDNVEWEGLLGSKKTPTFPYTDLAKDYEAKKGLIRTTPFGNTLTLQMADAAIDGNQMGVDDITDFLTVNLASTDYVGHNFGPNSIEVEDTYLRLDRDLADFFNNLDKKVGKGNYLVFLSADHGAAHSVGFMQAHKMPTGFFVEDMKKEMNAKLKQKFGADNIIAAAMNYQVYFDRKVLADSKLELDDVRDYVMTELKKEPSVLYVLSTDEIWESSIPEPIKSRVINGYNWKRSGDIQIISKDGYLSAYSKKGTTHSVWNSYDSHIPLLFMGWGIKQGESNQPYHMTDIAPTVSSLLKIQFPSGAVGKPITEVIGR
G517V: 877 nM
G525A: 1.96 µM
E406V: 2.15 µM
F341V: 2.15 µM

Study 2
Target: CCNA1, cyclin fold, Cln2 fusion (human)
Method: yeast growth competition, sequencing
Matrix: yeast
Setting: weak parent motif
Baseline: not given
Direction: higher = stronger binding
Quantity: normalised enrichment score
Starting sequence: viral docking peptide; KGVKRKLFAEDSS
KGVKRKLFKEDSS [A9K]: 0.629
KGYKRKLFAEDSS [V3Y]: 0.915
KGVMRKLFAEDSS [K4M]: -0.346
KGVKRKLFAEDNS [S12N]: 1.38
KGVKRKLVAEDSS [F8V]: 0.274
KGVKRKAFAEDSS [L7A]: -0.00337
KGVKRKLFAEFSS [D11F]: 0.802
KGVKRKLSAEDSS [F8S]: -0.358
KGVKRGLFAEDSS [K6G]: 1.02
KGVCRKLFAEDSS [K4C]: 0.79
KGVKVKLFAEDSS [R5V]: 0.448
KGVTRKLFAEDSS [K4T]: 0.148
KGVKRKLGAEDSS [F8G]: 0.292
KGVKRKLHAEDSS [F8H]: -0.0233
KGVKRRLFAEDSS [K6R]: 1.73
KGVKRKLPAEDSS [F8P]: -0.00639
KGVKMKLFAEDSS [R5M]: 0.0786
KGVKRKLAAEDSS [F8A]: 0.482
KGVKRKQFAEDSS [L7Q]: 0.349
KGVKRKCFAEDSS [L7C]: 0.199
KGVKRKLFAEDYS [S12Y]: 0.803
KGVKRKLYAEDSS [F8Y]: 0.435
KGVKRILFAEDSS [K6I]: 0.413
KGVKRKLKAEDSS [F8K]: 0.104
KGVKRKWFAEDSS [L7W]: -0.43

Study 3
Target: Centromere-binding protein 1, full length, His-tagged (CBF1, Saccharomyces cerevisiae, UniProt P17106, residues 1-351)
UniProt P17106, sequence (whole entry, looked up): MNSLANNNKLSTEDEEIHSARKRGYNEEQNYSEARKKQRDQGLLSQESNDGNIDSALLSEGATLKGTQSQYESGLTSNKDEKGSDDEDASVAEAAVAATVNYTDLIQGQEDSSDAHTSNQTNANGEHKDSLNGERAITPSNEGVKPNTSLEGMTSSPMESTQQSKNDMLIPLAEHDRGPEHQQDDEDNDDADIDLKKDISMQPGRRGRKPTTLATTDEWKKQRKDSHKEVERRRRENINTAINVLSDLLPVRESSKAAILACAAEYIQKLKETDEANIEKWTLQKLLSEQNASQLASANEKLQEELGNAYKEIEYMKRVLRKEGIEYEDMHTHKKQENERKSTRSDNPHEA
Method: competition protein-binding microarray
Form: double-stranded DNA, one strand shown
Matrix: in vitro
Concentration: 2 µM
Setting: whole 60-bp probe, lowest competitor level
Added: Pho4 competitor, 0.05 µM
Direction: higher = stronger binding
Quantity: fluorescence intensity
GACGGCCAAAAACTTCACATGCCGCCCAGCCAAGCAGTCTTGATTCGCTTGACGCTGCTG: 73.3 a.u.
AAAGCGGTAATTTGAATGGTGGGTGCAGATATCTATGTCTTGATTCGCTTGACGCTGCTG: 72.7 a.u.
AAATTACTAAGTTGCAAAGTGGGTGACGCCGTATGAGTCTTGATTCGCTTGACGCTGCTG: 76.6 a.u.
CTAACGAAGGTTTTTCACGTGCTTTACAAGCCAAGTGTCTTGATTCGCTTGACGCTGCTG: 1360 a.u.
CGGGGTTAAGTTTTTCACGTGTACTGCTTGCAGCAGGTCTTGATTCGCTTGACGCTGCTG: 620 a.u.
GTCTTGTCTCATTGTGTAGTGGGTGTCCCCACTTCAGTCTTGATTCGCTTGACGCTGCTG: 87.9 a.u.
CGTTGTCTGAGCAGGAATAAAGAGTTAAGAATATAGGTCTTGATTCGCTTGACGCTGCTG: 85.9 a.u.
AGCAAGAAAACCCATCACGTGTGGATTCGGACCAAAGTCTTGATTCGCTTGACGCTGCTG: 2980 a.u.

Study 4
Target: POU, POU domain (Salpingoeca helianthica)
Method: Spec-seq
Form: double-stranded DNA, one strand shown
Matrix: in vitro
Concentration: not given
Setting: whole probe, mean of replicates
Baseline: not given
Direction: lower = stronger binding
Quantity: relative binding energy
All sequences stand within: GAGTCGTCTCGTCAGCAC … CCGTAGAGCACTCAGGTC
Target sequence (chain): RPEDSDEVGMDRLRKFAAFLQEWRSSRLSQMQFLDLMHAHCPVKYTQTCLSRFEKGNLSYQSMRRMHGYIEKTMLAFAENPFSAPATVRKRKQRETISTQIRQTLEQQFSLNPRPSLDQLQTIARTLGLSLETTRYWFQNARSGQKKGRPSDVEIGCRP
GTGGTAAT: 0.487 ln ratio
GTTATAAT: -0.698 ln ratio
ATGCCGCG: 1.65 ln ratio
ATCGCGAT: 1.31 ln ratio
ATGCGAGT: 1.42 ln ratio
ATTACGAT: 0.66 ln ratio
ATGCTCCT: 1.26 ln ratio
ATCTACAT: 1.03 ln ratio

Study 5
Target: TAR DNA-binding protein 43, full length, His tag (TARDBP, Homo sapiens, UniProt Q13148, residues 1-414)
Method: RNA Bind-n-Seq
Form: RNA
Matrix: in vitro
Concentration: 20 nM
Setting: 6-mer, flanks averaged, single round
Added: 150 mM KCl
Baseline: input library
Direction: higher = stronger binding
Quantity: 6-mer enrichment (R)
CCCAAA: 0.665
UAACUU: 0.581
CAUAAG: 0.7
GUAAUC: 0.607
AAACGU: 0.603
AUGACG: 0.898
GCGACU: 0.872
GCGCUA: 0.871

Other studies, line by line
IHAGLEPKYQISYTY  minimum log2 enrichment ratio (UDP-N-acetylglucosamine--peptide N-acetylglucosaminyltransferase 110 kDa subunit (OGT, Homo sapiens, UniProt O15294); binding, phage display NGS; peptide; panning round 2; baseline: input library): 6.66

For quick reference, copied from above (study 5):
CCCAAA: 0.665
UAACUU: 0.581
CAUAAG: 0.7
GUAAUC: 0.607
AAACGU: 0.603
AUGACG: 0.898
GCGACU: 0.872
GCGCUA: 0.871
